Measurements from different studies.
Numbered parts are unrelated; each lists some results of a single study. Changes are numbered by the printed parent chain.

Block 1 — target: CCND1, cyclin fold, Cln2 fusion (human); method: yeast growth competition, sequencing; sample: yeast; setting: weak parent motif; baseline: not given; reading: higher = stronger binding
Parent: CUX1 docking peptide (human); SRIRRELFIEEIQ
| Variant | normalised enrichment score |
| --- | --- |
| R5A L7A | 0.407 |
| R4A | 1.02 |
| E11A | 0.592 |
| I9A | 0.155 |
| R5K F8L | 0.409 |
| I3A | 1.34 |
| F8L | -0.273 |
| I12A | -0.137 |
| F8A | 0.324 |
| R5A | 0.396 |

Block 2 — method: protein binding microarray; molecule type: double-stranded DNA, one strand shown; sample: in vitro; tested at: not given; baseline: not given; reading: higher = stronger binding
Target: Histone acetyltransferase KAT6A, both winged helices, GST fusion (KAT6A, Homo sapiens, UniProt Q92794, residues 1-181)
Setting: 8-mer, flanks averaged, mean of 2 arrays, mostly near background
Construct (chain): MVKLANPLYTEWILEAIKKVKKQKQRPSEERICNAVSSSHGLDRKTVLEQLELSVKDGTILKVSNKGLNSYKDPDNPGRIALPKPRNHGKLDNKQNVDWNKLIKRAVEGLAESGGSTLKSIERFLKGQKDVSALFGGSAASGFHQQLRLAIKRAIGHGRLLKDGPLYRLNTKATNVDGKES
| Sequence | E-score |
| --- | --- |
| GTTGCACA | -0.109 |
| GGTCGGAC | 0.113 |
| CGAGAGAG | -0.0561 |
| CCATCCGC | 0.175 |
| ACCACGCC | 0.0926 |
| AAGAAGCC | 0.0425 |
| GAATCCCC | -0.12 |
| GATAATTA | 0.00213 |
| AGAACTCA | -0.137 |
| ATACTACA | 0.0415 |
| AACACAAC | -0.0101 |
| CATACCCC | -0.054 |
| ACCCGTCC | 0.167 |
| CACGGATA | 0.176 |
| AACATGGC | -0.0501 |
| CGCTGAAG | 0.156 |
| GGATAGCA | 0.00732 |

Block 3 — method: RNA Bind-n-Seq; molecule type: RNA; sample: in vitro; tested at: 365 nM; baseline: no-protein control; reading: higher = stronger binding
Target: RNA binding protein fox-1 homolog 2, RRM domain, GST-SBP tag (RBFOX2, Homo sapiens, UniProt O43251-10, residues 100-194)
Setting: natural RNA segment, single round, ends assumed
| Sequence | RBNS enrichment (R) |
| --- | --- |
| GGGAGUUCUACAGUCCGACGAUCCCACUUAACUCCAGUGUGGAUGACAGAGCGAGACCCUGCCUCAAAAAAAAAAAAAAAAAAAGAAAGCCACACUUAUUCUUUUCAGUAACCUGCUAGUGCACAGGCUGUACUGGAAUUCUCGGGUGCCAA | 0.905 |
| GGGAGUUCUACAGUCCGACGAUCCCCCCAUACCACUGUGUUCCUUCUGUAACGCCACGUUCUCCCUCCAGCAUGCCGAGCACAAUGUCCACCCACUUGUGCUGUGUAGACUGUUGCAUACAGCUGAGUACAGUUGGAAUUCUCGGGUGCCAA | 3.18 |
| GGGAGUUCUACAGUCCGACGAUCACCUUAGGUGGGCACAGGAGGGCCGAGCUUGUUUCUACCCACUGGCAGCUGCUGACUCAACUCUGGGCUCCCUGCCAUCUGUGGAGUACUUUUUUCCUGUUGUGUUGAAUUGGAAUUCUCGGGUGCCAA | 0.593 |
| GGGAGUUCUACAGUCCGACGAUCCCCCCGAGUUGUGAAAGCUGCGACGUAGCAGUGACCUCAGCAGUCCCUAUGUUUUCCCCCUUUGAAAAUUUUUCUCAGUUAAAUUAAGCUACUGAUUUGAAUUUGUUUUUUGGAAUUCUCGGGUGCCAA | 0.511 |
| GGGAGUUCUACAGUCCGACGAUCCUUGAGUGCCACCCCCAGGGAAGAACAUAAAGGGUUGCACAAUGCCACCCAUCCACUCCUUGCCAAGUGUUACCCAGAUGGUGGAGGAUGUGAAGGGAUUGCACCAAGCCUGGAAUUCUCGGGUGCCAA | 0.389 |
| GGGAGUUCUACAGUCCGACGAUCGUAUUUUUGCAUGGUUCCUUGUAUUGCAUUUCUUUGCACAUAUUAUGGGCUUGUGACCCUAAACUUGCAGGCAAGGUUAGCUGCUUUAGUAAGUAGAAUUUUGUGGUCUUUGGAAUUCUCGGGUGCCAA | 3.82 |
| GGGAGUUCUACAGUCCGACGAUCCCCCGGUCCAGGGGAGAGUCACUAGUUGUACCCUACUCCAUUAGGUCCCAAAUGGGGGCCCCAUUUCACCUGUAUCAGGACUCUGAGCAUCCCCAGCUGCCCCACAUCUUUGGAAUUCUCGGGUGCCAA | 0.514 |
| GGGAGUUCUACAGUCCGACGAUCUUUGAAUCCUUAUGUUGAUGAUGGUGUCUUUCUACACACUCACUGCAACUACUCAGGAAUUAUAAAGAUUUUCUGAAAUCUGAGAAGUGGAAUAAGGAAACCCAGUGGAGUGGAAUUCUCGGGUGCCAA | 0.473 |

Block 4 — method: protein-binding microarray; molecule type: double-stranded DNA, one strand shown; sample: in vitro; tested at: 940 nM top; setting: 60-bp whole probe; added: salmon DNA 0.4 mg/ml; baseline: random background probes; reading: higher = stronger binding; all sequences stand within: GCCTAGCAC … GTCTTGATTCGCTTGACGCTGCTG
Target: Interferon regulatory factor 5, full length, phosphomimetic (IRF5, Homo sapiens, UniProt Q13568-2, residues 1-514, S451D/S453D/S456D/S462D)
| Sequence | fitted relative affinity [z-score] |
| --- | --- |
| TTAGGACTGCTAGTGCTTTAGTGCTAG | -0.247 |
| TTAGGTTTCGGGTATCGGTTGGTGCTA | 11.8 |
| TCAACTCCCCAACTCGCACTGTGCTAG | 0.223 |
| TTAGGACTGGCGTTTCGGTTAGTGCTA | 1.29 |
| GACGATTTCCTTTCCCTGACGTGCTAG | 1.11 |
| TCATTTGTCATCTATAATACTGTGCTA | 0.696 |
| TTAGGTCTGCTTTTCCTTTAGTGCTAG | 0.117 |
| TTAGATATCAGACTGGAGTAGTGCTAG | -0.359 |
| TTAGGACTGGACACTCGGTTAGTGCTA | -0.471 |
| TCAACAATGGCTTTGCCACTGTGCTAG | -0.472 |
| GACGAACTGGGGAATGGAGACGTGCTA | 0.103 |
| TTAGGACTGGGGTTTCGGTGAGTGCTA | 3.72 |
| TCCCTTTCAGTTTTCCTATGGTGCTAG | 2.68 |
| TTAGATTCCAGTTTGGATTAGTGCTAG | -0.214 |
| TTAGGAGTGCTTCTCCTTTAGTGCTAG | -0.77 |
| GACGATATCAGTCTCGAGGCGTGCTAG | 0.899 |
| TCAATTGTGGTTTTCATACTGTGCTAG | 0.497 |
| GGCGGTCTCCTTTTCCTGACGTGCTAG | 0.631 |
| GACGGTATCCTACTGCAGACGTGCTAG | -0.011 |

For quick reference, copied from above (block 4):
| Sequence | fitted relative affinity [z-score] |
| --- | --- |
| TCATTTGTCATCTATAATACTGTGCTA | 0.696 |
| TTAGGTCTGCTTTTCCTTTAGTGCTAG | 0.117 |
| TTAGATATCAGACTGGAGTAGTGCTAG | -0.359 |
| TTAGGACTGGACACTCGGTTAGTGCTA | -0.471 |
| TCAACAATGGCTTTGCCACTGTGCTAG | -0.472 |
| GACGAACTGGGGAATGGAGACGTGCTA | 0.103 |
